Experimental data pooled from the literature.
Lines come from different studies, so protocols differ. ± gives the spread as reported. Values after ≈ are worked out from the molar mass of the structure shown.

For `Cc1ccc(/C=C/C(=O)O)cc1-c1cc2c(cc1C)C(C)(C)CCC2(C)C`, the LDL level was 5 ± 1.5 mg/dL (Sprague-Dawley rat, male, plasma; oral, 100 mg/kg, 12 h, sesame oil vehicle).
`C#Cc1c(F)ccc2cc(O)cc(-c3ncc4c(N5CC6CCC(C5)N6C(=O)OCCCCC)nc(OC[C@@]56CCCN5C[C@H](F)C6)nc4c3F)c12` has a compound remaining of 115% (chemical stability; simulated intestinal fluid; 1 µM, 30 min).
`Cc1ccc(OCC(=O)N(Cc2cccs2)c2ccn[nH]2)cc1` has an NOAEL of 100 mg/kg/day (Sprague-Dawley rat, both sexes; oral gavage, 90 consecutive days, highest dose tested).
`O=P([O-])([O-])Oc1ccc(-c2cc(=S)ss2)cc1.[Na+].[Na+]` gave a solubility of about 1.7 mg/mL (HPLC; PBS; pH 7.4, 25 °C).
For `CCCC[C@@H]1NC(=O)[C@H](Cc2ccc(O)cc2)NC(=O)[C@@H]2CCCN2C(=O)[C@H](CC(=O)O)NC(=O)[C@H](C)NC(=O)[C@H](Cc2ccccc2)NC(=O)[C@@H]2CSCCC(=O)N3CN(CN(C3)C(=O)CCSC[C@@H](C(=O)N[C@@H](C)C(N)=O)NC1=O)C(=O)CCSC[C@H](NC(C)=O)C(=O)N[C@@H](CC(C)(C)C)C(=O)N1CCC[C@H]1C(=O)N[C@@H](CCC(=O)O)C(=O)N[C@H](CCCCNC(=O)CCc1cn(CCOCCOCCOCCN(CCOCCOCCOCCC(=O)N[C@H]3CSCCC(=O)N4CN5CN(C4)C(=O)CCSC[C@H](NC(=O)[C@@H](CC(=O)O)NC(=O)[C@H](Cc4cccc6ccccc46)NC(=O)[C@@H]4CCCN4C3=O)C(=O)N[C@@H](CCSC)C(=O)N[C@@H](CCCCNC(=N)N)C(=O)N[C@@H](CC(=O)O)C(=O)N[C@@H](Cc3c[nH]c4ccccc34)C(=O)N[C@@H](CO)C(=O)N[C@@H]([C@@H](C)O)C(=O)N3CCC[C@H]3C(=O)N3C[C@H](O)C[C@H]3C(=O)N[C@@H](Cc3c[nH]c4ccccc34)C(=O)N[C@H](C(N)=O)CSCCC5=O)CCOCCOCCOCCn3cc(CCC(=O)NCCCC[C@H]4NC(=O)[C@H](CCC(=O)O)NC(=O)[C@@H]5CCCN5C(=O)[C@H](CC(C)(C)C)NC(=O)[C@@H](NC(C)=O)CSCCC(=O)N5CN6CN(C5)C(=O)CCSC[C@H](NC(=O)[C@H](Cc5ccc(O)cc5)NC(=O)[C@@H]5CCCN5C4=O)C(=O)N[C@@H](Cc4ccccc4)C(=O)N[C@@H](C)C(=O)N[C@@H](CC(=O)O)C(=O)N4CCC[C@H]4C(=O)N[C@@H](Cc4ccc(O)cc4)C(=O)N[C@@H](CCCC)C(=O)N[C@H](C(=O)N[C@@H](C)C(N)=O)CSCCC6=O)nn3)nn1)C(=O)N1CCC[C@H]1C(=O)N[C@@H](Cc1ccc(O)cc1)C(=O)N2`, the thermodynamic solubility was 20 mg/mL (≈ 2770 µM) (aqueous buffer; pH 7.4).
`[2H]C([2H])([2H])C([2H])([2H])C([2H])([2H])OC(C(=O)OC1CCNCC1)(c1ccccc1)c1ccccc1` — result for “adverse drug reactions”: 0% (measured: rhinorrhea; healthy Japanese male; oral, 15 mg, 16 days, multiple ascending dose).
`CN(C)C(CNC(=O)Nc1cc(C(F)(F)F)ccc1N1CCOCC1)c1ccncc1` (centres unmarked) gave a serum magnesium of 2.5 mg/dL (mouse, serum; intraperitoneal, 240 mg/kg single dose).
`CC[C@H](C)C(=O)N1CCC(NC(=O)Nc2ccc(OC(F)(F)F)c(F)c2)CC1`: “subjects with laryngitis TEAE” 16.7% (healthy volunteers; oral, 0.5 mg single dose).
With `CCCCCCCC(=O)NCCCC[C@H](NC(=O)[C@H](Cc1ccccc1)NC(=O)[C@@H](CCCNC(=N)N)NC(=O)[C@@H](N)Cc1ccc(O)cc1)C(N)=O` the terminal half-life was 1.8 h (mouse, CD-1, male, brain; intravenous, 3 mg/kg).
`COc1cc2c3c(c4cc(OC)c(OC)cc4c2cc1OC)CN1CCCCC1C3` (centres unmarked) gave a half-life of 15.1 h (Sprague-Dawley rats, male; oral, dose not given).
With `COC(=O)C[C@](O)(CCCC(C)(C)OC(C)=O)C(=O)O[C@@H]1C(OC)=C[C@]23CCCN2CCc2cc4c(cc2[C@H]13)OCO4` the tissue concentration was 171 ng/mL (CD1 mouse, heart; oral, 1 mg/kg, 2 h).
`CC(C)[C@H](NC(=O)CNC(=O)[C@H](CCC(N)=O)NC(=O)[C@H](C)N)C(=O)O`: “drug-related adverse events” 0% (human; intravenous infusion, 90 mg/kg/h, 2 h, relatedness Definitely; relative to: subjects).
With `O=C(O)CC[C@H](NC(=O)O[C@@H](CCCCNC(=O)c1ccc([18F])cc1)C(=O)O)C(=O)O` the tissue uptake was 0.08 ± 0.06 %ID/g (mouse, PC-3 PIP/flu xenografts, blood; 180 min).
For `N=C(N)NCc1ccc(C(=O)NCCCC[C@H](NC(=O)N[C@@H](CCC(=O)O)C(=O)O)C(=O)O)cc1[131I]`, the tissue uptake was 0.4 ± 0.11 %ID/g (SCID mouse, PC-3 xenografts, heart; 2 h).
`CCCCC[C@@H]1OC(=O)[C@@H](C)N(C)C(=O)[C@H](CCCCC)OC(=O)[C@@H](C)N(C)C(=O)[C@H](CCCCC)OC(=O)[C@@H](C)N(C)C(=O)[C@H](CCCCC)OC(=O)[C@@H](C)N(C)C1=O` has a diffusion of 26% (PAMPA; lecithin in n-dodecane membrane; 500 µM, pH 7.4, PBS with TPGS and DMSO).
`CSCC[C@@H]1NC(=O)[C@@H]2CSSC[C@H](NC(=O)[C@H](CO)NC(=O)[C@H](C)N)C(=O)N[C@@H](CCCNC(=N)N)C(=O)N[C@@H]([C@@H](C)O)C(=O)N3CCC[C@H]3C(=O)N[C@@H](CCCCN)C(=O)N[C@@H](CC(=O)O)C(=O)N[C@H]3CSSC[C@H](NC(=O)[C@H](CCCCN)NC(=O)[C@H](CCCNC(=N)N)NC(=O)[C@H](CC(N)=O)NC1=O)C(=O)N[C@@H](CCCCN)C(=O)N[C@H]1CSSC[C@H](NC(=O)[C@@H]4CCCN4C(=O)[C@H](CC(=O)O)NC(=O)[C@H](C)NC3=O)C(=O)N[C@@H](C)C(=O)N[C@@H](CCCCN)C(=O)N[C@@H](CCC(=O)O)C(=O)N[C@@H]([C@@H](C)O)C(=O)NCC(=O)N[C@@H](CSSC[C@@H](C(N)=O)NC(=O)[C@H](CCCNC(=N)N)NC(=O)[C@H](CC(N)=O)NC1=O)C(=O)N1CCC[C@H]1C(=O)N[C@@H](Cc1ccc(O)cc1)C(=O)NCC(=O)N[C@@H](CCCCN)C(=O)N2` has a Creatinine of 0.2 mg/dL (DA rat pristane-induced arthritis, serum; subcutaneous, 0.1 mg/kg single dose at onset, 21 days).
`O=C(c1ccc(F)cc1)C1CCN(C2Cc3c(cccc3OCC[18F])CC2O)CC1` (single isomer, unassigned; (-)) gave a tissue uptake of 0.505 ± 0.069 %ID/g (Sprague-Dawley rat, male, spleen; intravenous, dose not given, 60 min).

Some of these lines once more:
`COc1cc2c3c(c4cc(OC)c(OC)cc4c2cc1OC)CN1CCCCC1C3` (centres unmarked) gave a half-life of 15.1 h (Sprague-Dawley rats, male; oral, dose not given).
